Measurements collected from several papers.
Compare with care: the assays were run in different laboratories.

| SMILES | test | system | setting | ED50 |
| --- | --- | --- | --- | --- |
| COc1ccc([C@]2(O)OCC(C)(C)N[C@H]2C)cc1 | nicotine antinociception blockade, antagonist, tail-flick test | mouse | 15 min pretreatment, with: nicotine 2.5 mg/kg subcutaneous | 0.019 mg/kg |
| CN1CC[C@]23c4c5ccc(O)c4O[C@H]2[C@@H](O)C=C[C@H]3[C@H]1C5 | antinociception, 55 °C warm-water tail withdrawal | C57BL/6J mouse | icv, 20 to 30 min | 2.34 nmol |
| C[C@@H]1NC(C)(C)CO[C@@]1(O)c1ccc(-c2ccccc2)cc1 | nicotine antinociception blockade, antagonist, tail-flick test | mouse | 15 min pretreatment, with: nicotine 2.5 mg/kg subcutaneous | 0.021 mg/kg |
| CCCCCc1cc(O)c2c(c1)OC(C)(CCC=C(C)C)C=C2 (centres unmarked) | paw edema, inhibitor | mouse, LPS-induced paw edema | intraperitoneal, with: LPS | 38.7 mg/kg |
| CC[C@@H]1CN2CC[C@]3(Nc4cccc(OC)c4C3=O)[C@@H]2C[C@@H]1/C(=C\OC)C(=O)OC | antinociception, tail flick | mouse | before repeated dosing | 0.69 mg/kg |
| COC(=O)[C@H]1[C@@H](c2ccc(Cl)c(C)c2)C[C@@H]2CC[C@H]1N2C | nicotine conditioned place preference, antagonist | mouse | sc, with: nicotine 0.5 mg/kg sc | 0.25 mg/kg |
| CC(C(=O)c1cccc(F)c1)N1CCCC1 (centres unmarked) | nicotine-induced hypothermia, antagonist | mouse | 30 min after nicotine, with: nicotine 2.5 mg/kg s.c. | 7.5 mg/kg |
| COC(=O)[C@H]1[C@@H](c2ccc(Cl)c(C)c2)C[C@@H]2CC[C@H]1N2 | nicotine conditioned place preference, antagonist | mouse | sc, with: nicotine 0.5 mg/kg sc | 0.25 mg/kg |
| C[C@@H]1NC(C)(C)CO[C@@]1(O)c1ccc(Cl)cc1 | nicotine antinociception blockade, antagonist, tail-flick test | mouse | 15 min pretreatment, with: nicotine 2.5 mg/kg subcutaneous | 0.019 mg/kg |
| CC(NC(C)(C)C)C(=O)c1cccc(Cl)c1 (centres unmarked) | nicotine-induced antinociception, antagonist, hot-plate test | mouse | with: nicotine 2.5 mg/kg sc | 15 mg/kg |
| Cl.O=C(OCCN1CCOCC1)C1(c2ccccc2)CCCCC1 | antiallodynic effect | mouse, capsaicin-induced mechanical allodynia | subcutaneous, 32 to 64 mg/kg, 45 min before test, stimulus 0.5 g force, with: capsaicin 1 µg intraplantar | inactive |

A few entries again:
| SMILES | test | system | setting | ED50 |
| --- | --- | --- | --- | --- |
| CC(NC(C)(C)C)C(=O)c1cccc(Cl)c1 (centres unmarked) | nicotine-induced antinociception, antagonist, hot-plate test | mouse | with: nicotine 2.5 mg/kg sc | 15 mg/kg |
